Assay results of several laboratories.
Each line is one published result; not all experiments were run side by side. ± marks the error that the study gave. In brackets after ≈: the same amount, converted by molar mass.
Chain of UniProt P06276 (whole entry, looked up): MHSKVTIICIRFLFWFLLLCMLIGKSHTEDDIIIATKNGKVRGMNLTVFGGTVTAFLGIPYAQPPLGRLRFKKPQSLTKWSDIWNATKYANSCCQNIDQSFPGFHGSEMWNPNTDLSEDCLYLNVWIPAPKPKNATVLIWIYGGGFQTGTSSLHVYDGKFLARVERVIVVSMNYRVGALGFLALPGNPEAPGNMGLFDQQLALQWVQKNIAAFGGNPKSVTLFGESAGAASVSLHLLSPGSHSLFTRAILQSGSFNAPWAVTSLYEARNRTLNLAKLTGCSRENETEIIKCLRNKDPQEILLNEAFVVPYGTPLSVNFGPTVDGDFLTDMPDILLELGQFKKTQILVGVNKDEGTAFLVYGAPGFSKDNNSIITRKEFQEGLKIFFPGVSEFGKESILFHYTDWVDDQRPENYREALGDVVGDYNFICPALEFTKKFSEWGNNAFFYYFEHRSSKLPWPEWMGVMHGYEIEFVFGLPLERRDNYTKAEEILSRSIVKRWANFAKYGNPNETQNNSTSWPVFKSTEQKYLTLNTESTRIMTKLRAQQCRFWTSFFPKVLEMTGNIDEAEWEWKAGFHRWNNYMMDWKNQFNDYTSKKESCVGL

O=C(CCCN1CC=C(n2c(=O)[nH]c3ccccc32)CC1)c1ccc(F)cc1 — IC50 (Plasmodium falciparum; 3D7): 3.16 µM
O=C1NCc2c1c1c3ccccc3[nH]c1c1[nH]c3ccccc3c21 — IC50 (Cholinesterase (BCHE, Homo sapiens, UniProt P06276); inhibitor): 1.66 ± 0.11 µM
[Cl-].[Cl-].[Pt+2].[Ru+2].c1ccc(-c2nccnc2-c2ccccn2)nc1.c1cnc2c(c1)ccc1cccnc12.c1cnc2c(c1)ccc1cccnc12 — hatching rate (Danio rerio; embryos; 15 µM, 96 h): 63.3 ± 4.2%
CC(=O)N1CCC(C(=O)N2CCN3C(=O)c4cc(-c5ccccc5)ccc4NC(=O)C3C2)CC1 (stereo not drawn) — revertant fold increase (Escherichia coli; WP2 uvrA; 5000 µg/plate, with rat liver S9; reference: vehicle): 1
O=[N+]([O-])c1ccc(N2CCN(CCC(O)c3ccc(F)cc3)CC2)c(C(F)(F)F)c1 (stereo not drawn) — induction factor (Salmonella typhimurium; genotoxicity, SOS/umu test; TA1535/pSK1002; 0.25 mg/mL, 4 h, with S9, lower range): 0.6
O=C(NC(=O)c1ccccc1Cl)Nc1ccc(Cl)cc1 — mortality (Ostrinia furnacalis; leaf dipping; 200 mg/L, 96 h): 48.4 ± 2.6%
COc1ccnc(C(=O)N[C@H]2COC(=O)[C@H](Cc3ccccc3)[C@@H](OC(=O)C(C)C)[C@H](C)OC2=O)c1OCOC(=O)C(C)C — LC50 (Lepomis macrochirus; mortality; water exposure, flow-through, 96 h): 0.0138 µg/mL (≈ 0.0225 µM)
COc1cccc(-c2n[nH]c(SCc3ccccn3)n2)c1OC — revertant colonies per plate (Salmonella typhimurium; Ames test, plate incorporation; TA100; 1.0 mg/plate, with rat liver S9): 112
CN(C)CCCC1(c2ccc(F)cc2)OCc2cc(C#N)ccc21 (stereo not drawn) — IC50 (Plasmodium falciparum; 7G8): 6.31 µM
O[C@H](CNCCN1CCN(C(c2ccccc2)c2ccccc2)CC1)c1cc(Cl)cc2c1-c1ccc(Cl)cc1C2 — selectivity index (Plasmodium falciparum; 3D7; reference: HepG2 CC50 over IC50): 410
Cc1cc(C(=O)NC(C)(C)COc2cccc3c2C(N)=NS(=O)(=O)N3)cc(C)n1 — revertant ratio (Escherichia coli; Ames test, initial; WP2 uvrA; 5.00 µg/plate; reference: solvent control): 1.1
OC(CCN1CC=C(c2ccc(F)cc2)CC1)c1ccc(F)c2ccccc12 (stereo not drawn) — survival (Salmonella typhimurium; SOS/umu test; TA1535/pSK1002; 0.25 mg/mL, 4 h, without S9, lower range): 159%
[Cl-].[Cl-].[Pt+2].[Ru+2].c1ccc(-c2nc3ccccc3nc2-c2ccccn2)nc1.c1cnc2c(c1)ccc1cccnc12.c1cnc2c(c1)ccc1cccnc12 — survival rate (Danio rerio; embryos; 30 µM, 24 h): 86.7 ± 3.4%
O=[N+]([O-])c1ccc(NC2CCNCC2)c(C(F)(F)F)c1 — survival (Salmonella typhimurium; SOS/umu test; TA1535/pSK1002; 0.25 mg/mL, 4 h, without S9, full range): 75%
[Cl-].[Cl-].[Pt+2].[Ru+2].c1ccc(-c2nc3cc4ccccc4cc3nc2-c2ccccn2)nc1.c1cnc2c(c1)ccc1cccnc12.c1cnc2c(c1)ccc1cccnc12 — survival rate (Danio rerio; embryos; 15 µM, 48 h): 96.7 ± 2.9%

A few entries again:
[Cl-].[Cl-].[Pt+2].[Ru+2].c1ccc(-c2nccnc2-c2ccccn2)nc1.c1cnc2c(c1)ccc1cccnc12.c1cnc2c(c1)ccc1cccnc12 — hatching rate (Danio rerio; embryos; 15 µM, 96 h): 63.3 ± 4.2%
